Measurements collected from several papers.
Every numbered part comes from another study and shows a few of its results, in no order.
Chain of UniProt P07949 (whole entry, unmodified, looked up): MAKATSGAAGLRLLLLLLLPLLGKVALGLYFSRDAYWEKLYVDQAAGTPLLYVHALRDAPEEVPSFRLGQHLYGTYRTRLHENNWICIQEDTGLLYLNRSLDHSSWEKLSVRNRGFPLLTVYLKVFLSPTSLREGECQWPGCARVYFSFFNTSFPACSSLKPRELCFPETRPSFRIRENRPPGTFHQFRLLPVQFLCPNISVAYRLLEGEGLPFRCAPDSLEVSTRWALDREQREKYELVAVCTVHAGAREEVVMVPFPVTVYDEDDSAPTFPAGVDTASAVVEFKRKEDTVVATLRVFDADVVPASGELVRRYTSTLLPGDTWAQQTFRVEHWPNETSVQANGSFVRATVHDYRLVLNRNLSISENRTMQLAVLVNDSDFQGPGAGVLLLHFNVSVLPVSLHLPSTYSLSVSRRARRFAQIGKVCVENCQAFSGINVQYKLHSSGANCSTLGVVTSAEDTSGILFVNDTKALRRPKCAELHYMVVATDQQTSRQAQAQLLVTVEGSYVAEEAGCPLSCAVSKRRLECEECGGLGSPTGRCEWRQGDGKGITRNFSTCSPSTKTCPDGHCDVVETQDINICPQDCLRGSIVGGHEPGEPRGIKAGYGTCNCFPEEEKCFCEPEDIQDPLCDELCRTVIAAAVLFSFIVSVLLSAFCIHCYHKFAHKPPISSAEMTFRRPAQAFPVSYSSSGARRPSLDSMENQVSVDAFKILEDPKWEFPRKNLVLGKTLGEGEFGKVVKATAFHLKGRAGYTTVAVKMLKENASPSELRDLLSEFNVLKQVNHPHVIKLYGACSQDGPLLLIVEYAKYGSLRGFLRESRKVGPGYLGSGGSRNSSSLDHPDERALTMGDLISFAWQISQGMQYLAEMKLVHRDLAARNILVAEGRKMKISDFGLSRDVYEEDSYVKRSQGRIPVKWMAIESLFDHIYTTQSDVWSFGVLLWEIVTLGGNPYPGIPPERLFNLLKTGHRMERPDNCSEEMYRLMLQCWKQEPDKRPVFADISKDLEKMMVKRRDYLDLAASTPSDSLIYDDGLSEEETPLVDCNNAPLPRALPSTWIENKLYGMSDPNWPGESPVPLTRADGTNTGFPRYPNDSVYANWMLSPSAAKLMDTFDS
Chain of UniProt P22455 (whole entry, looked up): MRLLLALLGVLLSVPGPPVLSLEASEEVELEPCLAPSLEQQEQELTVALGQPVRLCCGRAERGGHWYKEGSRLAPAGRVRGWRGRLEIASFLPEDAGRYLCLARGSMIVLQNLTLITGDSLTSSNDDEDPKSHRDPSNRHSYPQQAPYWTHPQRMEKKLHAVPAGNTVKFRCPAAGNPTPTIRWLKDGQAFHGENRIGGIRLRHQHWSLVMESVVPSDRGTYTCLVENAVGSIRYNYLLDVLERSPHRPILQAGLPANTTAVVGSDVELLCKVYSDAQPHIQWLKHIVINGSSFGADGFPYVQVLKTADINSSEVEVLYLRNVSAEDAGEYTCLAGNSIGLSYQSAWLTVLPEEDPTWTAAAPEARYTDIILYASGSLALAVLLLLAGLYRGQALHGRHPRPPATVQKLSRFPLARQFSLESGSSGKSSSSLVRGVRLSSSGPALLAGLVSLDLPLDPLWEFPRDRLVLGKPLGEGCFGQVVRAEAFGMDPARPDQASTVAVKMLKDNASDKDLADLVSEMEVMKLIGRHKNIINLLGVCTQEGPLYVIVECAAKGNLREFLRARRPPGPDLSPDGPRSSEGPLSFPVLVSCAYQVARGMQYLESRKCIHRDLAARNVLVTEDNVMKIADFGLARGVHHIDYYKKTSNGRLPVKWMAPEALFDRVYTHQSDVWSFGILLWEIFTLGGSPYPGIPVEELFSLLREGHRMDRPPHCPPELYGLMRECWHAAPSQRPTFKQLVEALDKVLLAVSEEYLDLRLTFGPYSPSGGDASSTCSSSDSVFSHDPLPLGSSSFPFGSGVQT
Chain of UniProt Q13177 (whole entry, looked up): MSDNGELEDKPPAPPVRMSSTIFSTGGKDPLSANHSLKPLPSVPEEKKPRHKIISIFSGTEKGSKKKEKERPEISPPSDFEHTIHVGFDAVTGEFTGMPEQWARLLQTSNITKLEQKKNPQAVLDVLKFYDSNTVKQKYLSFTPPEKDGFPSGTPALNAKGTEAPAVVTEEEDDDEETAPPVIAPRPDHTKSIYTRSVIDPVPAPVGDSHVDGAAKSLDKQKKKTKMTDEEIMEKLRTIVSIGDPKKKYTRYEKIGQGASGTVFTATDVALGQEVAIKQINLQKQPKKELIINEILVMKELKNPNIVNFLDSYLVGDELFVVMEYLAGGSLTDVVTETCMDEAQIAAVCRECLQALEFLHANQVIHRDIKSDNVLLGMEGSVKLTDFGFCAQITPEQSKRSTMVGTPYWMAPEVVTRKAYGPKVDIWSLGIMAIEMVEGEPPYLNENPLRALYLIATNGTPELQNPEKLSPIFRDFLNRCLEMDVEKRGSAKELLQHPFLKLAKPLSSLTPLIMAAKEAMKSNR
Chain of UniProt P10721 (whole entry, unmodified, looked up): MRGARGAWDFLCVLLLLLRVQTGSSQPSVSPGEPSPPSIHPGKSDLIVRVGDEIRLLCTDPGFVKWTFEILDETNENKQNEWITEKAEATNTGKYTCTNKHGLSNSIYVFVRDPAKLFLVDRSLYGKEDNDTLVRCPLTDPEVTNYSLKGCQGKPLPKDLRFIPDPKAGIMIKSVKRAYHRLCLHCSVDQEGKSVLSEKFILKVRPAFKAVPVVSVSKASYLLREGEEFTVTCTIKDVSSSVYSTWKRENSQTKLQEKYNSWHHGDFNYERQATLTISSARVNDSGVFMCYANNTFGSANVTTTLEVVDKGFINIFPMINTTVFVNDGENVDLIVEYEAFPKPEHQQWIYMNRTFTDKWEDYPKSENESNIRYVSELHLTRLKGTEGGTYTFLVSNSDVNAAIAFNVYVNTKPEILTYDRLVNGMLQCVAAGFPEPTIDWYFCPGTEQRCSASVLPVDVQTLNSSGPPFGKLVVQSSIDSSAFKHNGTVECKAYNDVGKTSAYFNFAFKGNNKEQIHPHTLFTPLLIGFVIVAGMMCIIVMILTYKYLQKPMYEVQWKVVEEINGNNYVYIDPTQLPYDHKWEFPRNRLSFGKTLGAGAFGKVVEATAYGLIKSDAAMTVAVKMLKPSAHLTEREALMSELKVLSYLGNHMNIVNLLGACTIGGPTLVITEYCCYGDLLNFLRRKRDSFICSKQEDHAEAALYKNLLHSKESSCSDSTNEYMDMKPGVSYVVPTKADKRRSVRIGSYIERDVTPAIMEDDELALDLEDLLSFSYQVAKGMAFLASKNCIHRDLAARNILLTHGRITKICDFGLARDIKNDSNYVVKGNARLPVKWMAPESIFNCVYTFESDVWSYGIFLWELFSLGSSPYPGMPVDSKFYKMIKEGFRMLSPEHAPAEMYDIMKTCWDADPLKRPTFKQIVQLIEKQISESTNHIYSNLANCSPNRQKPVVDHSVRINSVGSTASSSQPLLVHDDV
Chain of UniProt P29323 (whole entry, looked up): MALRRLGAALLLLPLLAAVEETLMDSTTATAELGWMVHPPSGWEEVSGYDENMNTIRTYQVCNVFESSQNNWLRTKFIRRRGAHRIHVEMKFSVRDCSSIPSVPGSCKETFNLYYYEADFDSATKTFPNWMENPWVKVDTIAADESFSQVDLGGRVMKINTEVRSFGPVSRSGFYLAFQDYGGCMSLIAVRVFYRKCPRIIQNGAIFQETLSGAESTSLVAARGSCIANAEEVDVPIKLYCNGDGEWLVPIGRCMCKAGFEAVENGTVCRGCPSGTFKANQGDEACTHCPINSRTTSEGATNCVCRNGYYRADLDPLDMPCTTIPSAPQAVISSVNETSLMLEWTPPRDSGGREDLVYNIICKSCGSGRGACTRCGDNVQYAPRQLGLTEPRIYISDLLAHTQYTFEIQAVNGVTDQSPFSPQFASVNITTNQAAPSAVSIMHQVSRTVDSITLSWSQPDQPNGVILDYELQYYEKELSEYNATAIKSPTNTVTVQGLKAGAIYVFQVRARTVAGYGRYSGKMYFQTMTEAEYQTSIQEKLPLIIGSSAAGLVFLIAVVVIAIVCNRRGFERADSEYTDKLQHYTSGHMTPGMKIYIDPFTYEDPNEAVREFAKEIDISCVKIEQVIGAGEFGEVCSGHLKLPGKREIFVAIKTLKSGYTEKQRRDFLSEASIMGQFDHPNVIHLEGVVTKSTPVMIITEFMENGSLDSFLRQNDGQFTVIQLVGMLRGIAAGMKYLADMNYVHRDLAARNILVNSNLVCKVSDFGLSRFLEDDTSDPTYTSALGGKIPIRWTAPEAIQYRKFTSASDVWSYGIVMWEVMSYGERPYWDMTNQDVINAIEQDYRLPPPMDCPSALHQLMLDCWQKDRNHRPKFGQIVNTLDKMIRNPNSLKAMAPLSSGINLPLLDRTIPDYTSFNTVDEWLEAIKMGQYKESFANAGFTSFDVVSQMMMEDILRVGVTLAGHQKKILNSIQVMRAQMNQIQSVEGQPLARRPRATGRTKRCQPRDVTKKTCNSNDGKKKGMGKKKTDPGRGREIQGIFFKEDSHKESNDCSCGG
Chain of UniProt P19525 (whole entry, looked up): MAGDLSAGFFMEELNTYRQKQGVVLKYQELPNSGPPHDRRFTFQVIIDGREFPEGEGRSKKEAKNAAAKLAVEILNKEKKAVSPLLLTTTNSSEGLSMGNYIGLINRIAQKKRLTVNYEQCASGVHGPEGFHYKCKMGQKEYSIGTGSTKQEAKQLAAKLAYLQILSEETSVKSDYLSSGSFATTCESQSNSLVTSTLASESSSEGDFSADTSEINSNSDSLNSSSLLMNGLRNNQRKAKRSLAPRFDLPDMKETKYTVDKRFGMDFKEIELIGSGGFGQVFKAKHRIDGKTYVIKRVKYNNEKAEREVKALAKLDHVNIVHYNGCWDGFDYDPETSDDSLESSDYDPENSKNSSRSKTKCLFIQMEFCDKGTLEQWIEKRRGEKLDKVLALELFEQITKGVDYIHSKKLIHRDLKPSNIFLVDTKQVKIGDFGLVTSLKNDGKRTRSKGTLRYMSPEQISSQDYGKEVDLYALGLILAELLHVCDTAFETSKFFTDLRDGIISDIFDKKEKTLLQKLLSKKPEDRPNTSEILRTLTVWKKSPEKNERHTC

Set 1
SMILES: COc1ccc2c(c1)c(C1=C(c3c[nH]c4ccccc34)C(=O)NC1=O)cn2CCCN(C)C
Observed: enzyme activity
Mode: inhibitor
Tested at: 0.5 µM
Baseline: control
| target | remaining activity [%] |
| --- | --- |
| Protein kinase C epsilon type (PRKCE, Homo sapiens, UniProt Q02156) | 14.6 |
| Serine/threonine-protein kinase Sgk1 (SGK1, Homo sapiens, UniProt O00141) | 99.5 |
| G protein-coupled receptor kinase 6 (GRK6, Homo sapiens, UniProt P43250) | 96.2 |
| Tyrosine-protein kinase CSK (CSK, Homo sapiens, UniProt P41240) | 84 |
| Receptor-type tyrosine-protein kinase FLT3 (FLT3, Homo sapiens, UniProt P36888) | 23.2 |
| Serine/threonine-protein kinase PAK 2 (PAK2, Homo sapiens, UniProt Q13177) | 108 |
| Ephrin type-B receptor 2 (EPHB2, Homo sapiens, UniProt P29323) | 78.7 |
| Fibroblast growth factor receptor 4 (FGFR4, Homo sapiens, UniProt P22455) | 79.2 |
| Beta-adrenergic receptor kinase 1 (GRK2, Homo sapiens, UniProt P25098) | 99 |
| Cytoplasmic tyrosine-protein kinase BMX (BMX, Homo sapiens, UniProt P51813) | 96.3 |

Set 2
SMILES: O=C(Nc1cccnn1)N1CCC(=Cc2cccc(Oc3ccc(C(F)(F)F)cn3)c2)CC1
Observed: cell-free assay
Technique: competition with immobilised ligand
Tested at: 1 µM
| target | remaining binding |
| --- | --- |
| Receptor-type tyrosine-protein kinase FLT3 (FLT3, Homo sapiens, UniProt P36888, K663Q) | 100% |
| Serine/threonine-protein kinase Nek4 (NEK4, Homo sapiens, UniProt P51957) | 98% |
| Serine/threonine-protein kinase RIO3 (RIOK3, Homo sapiens, UniProt O14730) | 100% |
| Tyrosine-protein kinase ABL1, phosphorylated (ABL1, Homo sapiens, UniProt P00519, Y253F) | 100% |
| Epidermal growth factor receptor (EGFR, Homo sapiens, UniProt P00533, del747-752/P753S) | 68% |
| Dual specificity mitogen-activated protein kinase kinase 6 (MAP2K6, Homo sapiens, UniProt P52564) | 100% |
| Serine/threonine-protein kinase Nek6 (NEK6, Homo sapiens, UniProt Q9HC98) | 100% |
| Proto-oncogene tyrosine-protein kinase receptor Ret (RET, Homo sapiens, UniProt P07949, M918T) | 80% |
| Serine/threonine-protein kinase WNK4 (WNK4, Homo sapiens, UniProt Q96J92) | 96% |
| Cyclin-dependent kinase 4, with cyclin D3 (CDK4, Homo sapiens, UniProt P11802) | 96% |
| Mast/stem cell growth factor receptor Kit (KIT, Homo sapiens, UniProt P10721, D816H) | 100% |
| Interferon-induced, double-stranded RNA-activated protein kinase (EIF2AK2, Homo sapiens, UniProt P19525) | 100% |
| Inhibitor of nuclear factor kappa-B kinase subunit epsilon (IKBKE, Homo sapiens, UniProt Q14164) | 100% |
| Calcium/calmodulin-dependent protein kinase type IV (CAMK4, Homo sapiens, UniProt Q16566) | 63% |
| Homeodomain-interacting protein kinase 3 (HIPK3, Homo sapiens, UniProt Q9H422) | 100% |
| Cyclin-dependent kinase 2 (CDK2, Homo sapiens, UniProt P24941) | 100% |
| Receptor-type tyrosine-protein kinase FLT3 (FLT3, Homo sapiens, UniProt P36888) | 100% |
| Serine/threonine-protein kinase 38-like (STK38L, Homo sapiens, UniProt Q9Y2H1) | 84% |

Set 3
Host: human
Sample: microsomes or S9
Tested at: 2 µM
Time: 0.5 h
| Compound | remaining compound [%] |
| --- | --- |
| CCOc1cccc(C2c3cccn3-c3sc4c(c3CN2C(=O)Nc2ccc(C)c(F)c2)CCCC4)c1 (centres unmarked) | 16.1 |
| CC(C)(C)OC(=O)N1CCC2(CC1)NN=C1C=C(N3CCN(c4ccccc4F)CC3)N=CN12 | 81.8 |
| Cc1ccc2c(c1)N(C(=O)c1cccc(F)c1)CC(C)O2 (centres unmarked) | 15.2 |
| Cc1ccc2c(c1)nnn2C1CCN(C(=O)N(c2ccccc2)c2ccccc2)CC1 | 46.4 |
| CC(C)N(/C(=N/c1c(F)cccc1F)Nc1ccc2c(c1)C=CC(C)(C)O2)C(C)C | 2.91 |
| COc1cc(=O)n2c(c1C(=O)Nc1ccc(Cl)c(C)c1)CCCC2 | 48.5 |
| CCC1c2cccn2-c2sc3c(c2CN1C(=O)Nc1ccc(C)cc1C)CCCC3 (centres unmarked) | 1.75 |
| Cn1cc(C(NC(=O)c2cc3sccc3[nH]2)[C@H]2C[C@@H](O)C2)cn1 (some centres unmarked) | 95.1 |
| O=C(O)c1ccc(C2(c3ccc(C(=O)O)cc3)OC(=O)c3ccccc32)cc1 | > 100 |
| Nc1ncnc2c1cnn2-c1nc2ccccc2s1 | 27.9 |
| COc1ccc(OCCNC(=O)c2cc(S(=O)(=O)N(C)C)c(Cl)cc2Cl)cc1 | 32.5 |
| O=C(CCS(=O)(=O)c1ccccc1)N(Cc1cccnc1)c1nc2ccc(Cl)cc2s1 | 52.3 |

Set 4
Cell line: HH
Tested at: 2 µM
Time: 48 h
Baseline: untreated
| Compound | viability [%] |
| --- | --- |
| Cc1ccc(NC(=O)c2cccc(N(C)C)c2)cc1NC(=O)c1ccc(O)cc1 | 77.6 |
| CSc1cccc(Nc2ncc3cc(-c4c(Cl)cccc4Cl)c(=O)n(C)c3n2)c1 | 95.9 |
| CCc1cnn2c(NCc3ccc[n+]([O-])c3)cc(N3CCCC[C@H]3CCO)nc12 | 12.2 |
| CNC(=O)CN1CCC(Oc2cc3c(Nc4cccc(Cl)c4F)ncnc3cc2OC)CC1 | 78.3 |
| CS(=O)(=O)c1cccc(CNc2nc(Nc3ccc4c(c3)CCC(=O)N4)ncc2C(F)(F)F)c1 | 102 |
| COc1cc2nccc(Oc3ccc(NC(=O)Nc4ccc(F)cc4F)c(F)c3)c2cc1OC | 87 |
| COc1c(C)c(C(=O)c2ccc(N)c(C(=O)O)c2)n2ccccc12 | 86.2 |
| COc1cc2ncnc(Nc3ccc(O)c(Br)c3)c2cc1OC | 91.9 |
| Cc1ccc(NC(=O)c2cccc(C(C)(C)C#N)c2)cc1Nc1ccc2ncn(C)c(=O)c2c1 | 99.2 |
| Cc1cn(-c2cc(NC(=O)c3ccc(C)c(Nc4nccc(-c5cccnc5)n4)c3)cc(C(F)(F)F)c2)cn1 | 64.4 |
| O=C(NC(NC(=S)Nc1ccc(F)c([N+](=O)[O-])c1)C(Cl)(Cl)Cl)C(c1ccccc1)c1ccccc1 (centres unmarked) | 81.1 |
| C[C@]1(O)C[C@@H](c2nc(-c3ccc4ccc(-c5ccccc5)nc4c3)c3c(N)nccn32)C1 | 85.7 |
| CNC(=O)c1ccccc1Nc1nc(Nc2ccc(N3CCOCC3)cc2OC)ncc1Cl | 67.6 |

Some of these lines once more (set 3):
| Compound | remaining compound [%] |
| --- | --- |
| COc1ccc(OCCNC(=O)c2cc(S(=O)(=O)N(C)C)c(Cl)cc2Cl)cc1 | 32.5 |
| Cc1ccc2c(c1)N(C(=O)c1cccc(F)c1)CC(C)O2 (centres unmarked) | 15.2 |
| Cc1ccc2c(c1)nnn2C1CCN(C(=O)N(c2ccccc2)c2ccccc2)CC1 | 46.4 |
| CC(C)(C)OC(=O)N1CCC2(CC1)NN=C1C=C(N3CCN(c4ccccc4F)CC3)N=CN12 | 81.8 |
| O=C(CCS(=O)(=O)c1ccccc1)N(Cc1cccnc1)c1nc2ccc(Cl)cc2s1 | 52.3 |
| Cn1cc(C(NC(=O)c2cc3sccc3[nH]2)[C@H]2C[C@@H](O)C2)cn1 (some centres unmarked) | 95.1 |
| Nc1ncnc2c1cnn2-c1nc2ccccc2s1 | 27.9 |
| CCOc1cccc(C2c3cccn3-c3sc4c(c3CN2C(=O)Nc2ccc(C)c(F)c2)CCCC4)c1 (centres unmarked) | 16.1 |
